Measurements from different studies.
Every numbered part comes from another study and shows a few of its results, in no order.

Study 1
Target: Centromere-binding protein 1, full length, His-tagged (CBF1, Saccharomyces cerevisiae, UniProt P17106, residues 1-351)
Chain of UniProt P17106 (whole entry, looked up): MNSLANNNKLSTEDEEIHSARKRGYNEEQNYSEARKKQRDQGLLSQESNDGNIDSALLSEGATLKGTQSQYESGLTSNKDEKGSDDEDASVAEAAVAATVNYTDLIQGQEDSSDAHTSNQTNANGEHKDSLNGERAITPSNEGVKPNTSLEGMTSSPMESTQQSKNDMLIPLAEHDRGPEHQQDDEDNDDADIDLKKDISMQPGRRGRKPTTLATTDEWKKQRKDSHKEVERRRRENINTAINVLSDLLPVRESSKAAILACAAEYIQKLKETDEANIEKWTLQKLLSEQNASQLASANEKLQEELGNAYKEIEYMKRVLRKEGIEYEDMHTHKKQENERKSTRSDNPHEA
Method: competition protein-binding microarray
Molecule type: double-stranded DNA, one strand shown
Matrix: in vitro
Tested at: 2 µM
Setting: whole 60-bp probe, lowest competitor level
Together with: Pho4 competitor, 0.05 µM
Reading: higher = stronger binding
Oligonucleotide	fluorescence intensity [a.u.]
TCTCTAGGTGGTTGGGCAAATCTATCAATATTCTTGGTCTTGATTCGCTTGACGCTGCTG	63.8
CTTTCCCGATCTTGGTTGGTGGGTGTAGCACATTTGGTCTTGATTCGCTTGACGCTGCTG	66.1
CGTCCTAGCGATTGAAAAGTGGGTGCCATGAGGAAGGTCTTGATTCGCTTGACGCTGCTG	73.2
AACGAGTCTGACGATGACGTGACTCGCTCCACTAAGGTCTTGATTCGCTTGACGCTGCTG	129
CTCCACTTACTTGTAATACTTTATTATTTTTCACTTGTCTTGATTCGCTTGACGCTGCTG	90.3
AGGCTGCTTGATGTATTCGTGCGGAAAAAAAAAAAGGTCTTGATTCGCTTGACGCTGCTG	74.6
CCGAGACATCTTAGTCAGCTGAGACAAGAAAGGCAAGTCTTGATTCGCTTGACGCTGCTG	172
ACAGTATATTCCAAACATGTGTTAATCAAGCGTTGAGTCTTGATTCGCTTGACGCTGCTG	249
GTCTTGTCTCATTGTAACGTGGGTGTCCCCACTTCAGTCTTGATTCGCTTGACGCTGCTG	81
TAATGGTATAGGCGTCACCTGCCGAAACAAAAATCGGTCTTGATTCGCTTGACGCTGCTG	235
TTTGGCAAATTGACTCACGTGAGGACGTCTGCTAACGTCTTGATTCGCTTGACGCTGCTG	2560
GACTTGAAAGAACAGCACGTTTTTGTCATCGCTTACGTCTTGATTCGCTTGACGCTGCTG	186
CCTGTTCTACATGTACTCGTGCTTTCTTTATTGCTTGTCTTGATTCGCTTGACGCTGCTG	170
AAATTACTAAGTTGGTCTGTGGGTGACGCCGTATGAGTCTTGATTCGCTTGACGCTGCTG	70.5
CATCTTCAATATCCAGACGTGCAAAATGTTTCAATAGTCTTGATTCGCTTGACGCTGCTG	101
TGACACCCCCCAACACACGTTCCGCCCACTTTTTTTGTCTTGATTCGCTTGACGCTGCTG	122
CGGAAGACGTAGTGGCAGGTGAGGCGGCGAGTTCAGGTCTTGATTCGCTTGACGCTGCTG	65.3

Study 2
Target: Histone acetyltransferase KAT6A, both winged helices, GST fusion (KAT6A, Homo sapiens, UniProt Q92794, residues 1-181)
Method: protein binding microarray
Molecule type: double-stranded DNA, one strand shown
Matrix: in vitro
Tested at: not given
Setting: 8-mer, flanks averaged, mean of 2 arrays, mostly near background
Reference: not given
Reading: higher = stronger binding
Construct (chain): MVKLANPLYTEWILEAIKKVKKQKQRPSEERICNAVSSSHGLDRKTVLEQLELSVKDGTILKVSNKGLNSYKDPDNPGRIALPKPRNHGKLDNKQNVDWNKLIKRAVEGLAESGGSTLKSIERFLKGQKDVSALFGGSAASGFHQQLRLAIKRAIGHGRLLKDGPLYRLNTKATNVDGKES
Oligonucleotide	E-score
GCAATTGA	0.0589
AGTAGAGG	-0.273
GCCATTGA	0.0375
GGGGTGAA	-0.133
GCTACACA	0.078
ACGTAGCG	0.118
GAAGCGTA	0.183
AAAACGCT	0.101
GGCTCCGA	-0.0257
CACATCTA	-0.0734
CGATGTAA	0.109
TCCCGCGA	0.314
CGCTAATA	0.223
AGGCGACG	0.0598
CCGACTAA	0.0926
ATCGTCAA	0.0658
GCGCAACA	0.205
ACGACTTC	0.00505
AGCAATTC	0.02
AGCGGATC	0.18
CGGCCCAG	0.0905
CTAGACGA	-0.0832
CTTTTTCA	-0.166
ACGGAAGT	0.235
CCTTTACC	0.00789

Study 3
Target: Fragile X messenger ribonucleoprotein 1, C-terminal low-complexity region (Fmr1, Mus musculus, UniProt P35922)
Method: RNA Bind-n-Seq
Molecule type: RNA
Matrix: in vitro
Tested at: 200 nM
Setting: whole 134-nt RNA, ends assumed
Together with: 150 mM KCl
Reference: input library
Reading: higher = stronger binding
Oligonucleotide	log2 enrichment
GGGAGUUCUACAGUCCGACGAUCUGUGGGUCCUCCUGCACCUGGUGCUGGCCUUCCUGUCCCUGCGCUCUUUGACAGCCUCCUGACCUGUAGGACGAGGGAUUCCUUGUUCUUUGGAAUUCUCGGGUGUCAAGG	-0.718
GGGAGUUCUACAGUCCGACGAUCUGUGACAGGAGAGCGCUUGAAGAGCAAUGUGACGAGGACCAUCAGACACCGAGGGAUGGAGAGACAUCCCACAGGGCCCAGAUUCAGCAGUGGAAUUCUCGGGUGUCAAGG	0.0987
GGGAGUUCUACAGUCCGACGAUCUGGCCCUGGUGGCAUGCGGGGAGGAAGAGGUGGCCUCAUGGAUCGUGGUGGUCACGGUGGAAUGUUCAGAGGUGGCCGUGGUGGAGACAGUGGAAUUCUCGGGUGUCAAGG	-0.231
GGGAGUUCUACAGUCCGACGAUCGUAGAAAUUCAUGUAUAAAUGGAACCAUAUAGUACAUACAUAUCAUACUCUUAGGUCUGGCAAAUAUUUGAGGUUCAUCCAUAUUUUAUAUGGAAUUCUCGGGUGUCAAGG	-1.12
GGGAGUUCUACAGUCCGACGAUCUCCUGUGCUACACAUCGUAUGUACCGAAUCGGGGUUUUUGGGGAGGGGUUUUUUUGGGGAAAGUAUUAUGUUACGCCGUUCGGAUCUGCAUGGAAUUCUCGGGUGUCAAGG	0.725
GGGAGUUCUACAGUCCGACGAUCAAGUCCUGUGCUACACAUCGUAUGUACCGAAUCAAACCCAAACCCCCAAAUUUAAAAAAGUAUUAUGUUACGCCGUUCGGAUCUGCACUUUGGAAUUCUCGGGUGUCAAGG	-0.21
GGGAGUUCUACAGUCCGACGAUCCAAGUCCUGUGCUACACAUCGUAUGUACCGAAUCGGGUUUUUUUGGGUGGGAGGGAAAGUAUUAUGUUACGCCGUUCGGAUCUGCACUUCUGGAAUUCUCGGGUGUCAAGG	1.07
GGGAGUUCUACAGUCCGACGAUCUGGCCCUGGUGGCAUGCGGGGAGGAAGAGGUGGCCUCAUGGAUCGUGGUGGUCCCGGUGGCAUGUUCAGAGGUGGCCGUGGUGGAGACAGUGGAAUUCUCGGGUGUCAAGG	-0.199
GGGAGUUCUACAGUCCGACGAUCACCAUGCAGGUGGGCAUCUUUGGGAAGUGGGGCAAGGGGGGGAUAGGAAAGGGGGUAACACUUUGGGAACAGGUGGUCCCAGGUCGUUUCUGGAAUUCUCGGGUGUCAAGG	0.577
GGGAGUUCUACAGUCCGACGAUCUGGCCCUGGUGGCAUGCGGGGAGGAAGAGGUGGCCUUAUGGAUCGUGGUGGUCCCGGUGGAAUGUUCAGAGGUGGCCGUGGUGGAGACAGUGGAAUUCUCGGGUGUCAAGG	0.268

Study 4
Target: CDC34 UBC core domain (UniProt P49427)
Method: yeast two-hybrid
Matrix: yeast
Setting: mostly zero background
Reference: not given
Reading: higher = stronger interaction
B1: ZNRF4 RING domain (UniProt Q8WWF5); chain VRTFTWHNDLCAICLDEYEEGDQLKILPCSHTYHCKCIDPWFSQAPRRSCPVCKQSVAATEDSF
B2: TRIM41 RING domain (UniProt Q8WV44); chain PVQTLQEEAVCAICLDYFTDPVSIGCGHNFCRVCVTQLWGGEDEEDRDELDREEEEEDGEEE
B3: RNF182 RING domain (UniProt Q8N6D2); chain AESQASDELECKICYNRYNLKQRKPKVLECCHRVCAKCLYKIIDFGDSPQGVIVCPFCRFETCLPDDEV
B4: MKRN3 RING domain (UniProt Q13064); chain FAVQRGMDKVCGICMEVVYEKANPNDRRFGILSNCNHSFCIRCIRRWRSARQFENRIVKSCPQCRVTSELVIPSE
B5: VPS8 RING domain (UniProt Q8N3P4); chain TRGLNPKQDYCSICLQQYKRRQEMADEIIVFSCGHLYHSFCLQNKECTVEFEGQTRWTCYKCSSSNKVGKLSE
B6: RNF103 RING domain (UniProt O00237); chain WPADMLHCTECVVCLENFENGCLLMGLPCGHVFHQNCIVMWLAGGRHCCPVCRWPSYKKKQPY
B7: NFX1 RING domain (UniProt Q12986); chain IEQLTTEKYECMVCCELVRVTAPVWSCQSCYHVFHLNCIKKWARSPASQADGQSGWRCPACQNVSAHVPNTY
B8: CNOT4 RING domain (UniProt O95628); chain MSRSPDAKEDPVECPLCMEPLEIDDINFFPCTCGYQICRFCWHRIRTDENGLCPACRKPYPED
Residues (chain): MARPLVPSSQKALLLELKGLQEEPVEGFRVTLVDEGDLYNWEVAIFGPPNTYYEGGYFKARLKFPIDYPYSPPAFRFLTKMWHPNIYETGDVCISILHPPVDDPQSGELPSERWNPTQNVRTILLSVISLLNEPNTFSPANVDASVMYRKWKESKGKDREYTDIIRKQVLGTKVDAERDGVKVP
Sequence	lacZ reporter activity
B1 (ZNRF4 RING domain)	0
B2 (TRIM41 RING domain)	0
B3 (RNF182 RING domain)	0
FDPPLESKYECPICLMALREAVQTPCGHRFCKACIIKSIRDAGHKCPVDNEILLENQLFP (TRAF6 RING domain (UniProt Q9Y4K3))	0
B4 (MKRN3 RING domain)	0
B5 (VPS8 RING domain)	0
ASPKIFQKTKCSICNSALELPSVHFLCGHSFHQHCFESYSESDADCPTCLPENRKVMDMI (VPS11 RING domain (UniProt Q9H270))	0
B6 (RNF103 RING domain)	0
B7 (NFX1 RING domain)	0
LVKDFNPYITCYICKGYLIKPTTVTECLHTFCKTCIVQHFEDSNDCPRCGNQVHETNPLE (PCGF5 RING domain (UniProt Q86SE9))	0
B8 (CNOT4 RING domain)	0

Excerpt of the above (study 1):
Oligonucleotide	fluorescence intensity [a.u.]
AGGCTGCTTGATGTATTCGTGCGGAAAAAAAAAAAGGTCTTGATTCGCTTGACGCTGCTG	74.6
TGACACCCCCCAACACACGTTCCGCCCACTTTTTTTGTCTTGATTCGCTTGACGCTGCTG	122
AACGAGTCTGACGATGACGTGACTCGCTCCACTAAGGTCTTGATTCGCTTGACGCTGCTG	129
CCGAGACATCTTAGTCAGCTGAGACAAGAAAGGCAAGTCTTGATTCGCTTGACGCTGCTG	172
